{"data": "Assay results pooled from the literature", "note": "Protocols differ between the studies behind these lines. Values joined by “and” are separate records of one study, mostly repeats; a detail may differ. ± marks the error that the study gave."}
{"SMILES": "CC(C)NCCCC[C@@H]1NC(=O)[C@H](Cc2ccc(O)cc2)NC(=O)[C@H](Cc2ccccc2)NC(=O)CC[C@H](C(=O)N[C@@H](CCCCNC(C)C)C(=O)N[C@@H](CCCCNC(=O)[C@H](CCC(=O)O)NC(=O)[C@H](CCC(=O)O)NC(=O)[C@H](CCC(=O)O)NC(=O)CN2CCN(CC(=O)O)CCN(CC(=O)O)CCN(CC(=O)O)CC2)C(N)=O)NC(=O)CNC(=O)[C@H](Cc2ccc3ccccc3c2)NC(=O)[C@@H](CCCNC(=N)N)NC1=O [gallium-68 labelled]", "test": "ex vivo biodistribution", "system": "male mice, Granta-519 xenograft, adrenals", "setting": "intravenous, 1 h post-injection", "quantity": "tissue uptake", "result": "0.2 %ID/g"}
{"SMILES": "O=C(CCCCCCC(=O)Nc1ccc(CC[18F])cc1)NO", "system": "athymic nu/nu male mice, LNCaP xenograft, muscle", "setting": "intravenous, 1 h", "quantity": "tissue uptake", "result": "1.4 ± 0.3 %ID/g"}
{"SMILES": "NC/C(=C\\F)COc1cccc(Cn2c(=S)[nH]c(=O)c3[nH]cnc32)c1", "system": "C57BL/6J mice, heart", "setting": "oral, 15 mg/kg single, 6 h", "quantity": "tissue concentration", "result": "65 ng/mL"}
{"SMILES": "C[C@H](NC(=O)[C@H](CCC(N)=O)NC(=O)[C@H](C)NC(=O)[C@H](CCCNC(=N)N)NC(=O)[C@H](CCC(N)=O)NC(=O)[C@H](C)NC(=O)[C@H](CCCNC(=N)N)NC(=O)[C@H](CCC(N)=O)NC(=O)[C@H](C)NC(=O)[C@H](CCC(N)=O)NC(=O)[C@H](CCCNC(=N)N)NC(=O)[C@H](C)NC(=O)[C@H](CCC(N)=O)NC(=O)[C@H](CCCNC(=N)N)NC(=O)[C@H](C)NC(=O)[C@H](CCC(N)=O)NC(=O)[C@H](C)NC(=O)[C@H](CCCNC(=N)N)NC(=O)[C@H](CCC(N)=O)NC(=O)[C@H](C)NC(=O)[C@H](CCCNC(=N)N)NC(=O)[C@H](CO)NC(=O)[C@H](Cc1ccc(O)c(I)c1)NC(=O)CNC(=O)CNC(=O)CN)C(=O)N[C@@H](CCCNC(=N)N)C(=O)N[C@@H](CCC(N)=O)C(=O)N[C@@H](C)C(=O)N[C@@H](CCCNC(=N)N)C(=O)N[C@@H](CCC(N)=O)C(=O)O [iodine-125 labelled]", "system": "H2/IL-6 transgenic BALB/c mice, both sexes, upper intestine", "setting": "intravenous, 4 h", "quantity": "tissue uptake", "result": "8.3 %ID/g"}
{"SMILES": "OCc1nc2ccc(NCc3ccc(C(F)(F)F)cc3)cc2[nH]1", "system": "Balb/c mice, male, lungs", "setting": "oral, 10 mg/kg, 48 h", "quantity": "tissue concentration", "result": "not detected"}
{"SMILES": "O=C[C@H]([18F])[C@@H](O)[C@H](O)[C@H](O)CO", "system": "Kunming mice, turpentine inflammation, normal muscle", "setting": "intravenous, 0.74 MBq, 60 min", "quantity": "tissue uptake", "result": "0.95 ± 0.07 %ID/g"}
{"SMILES": "COCCCOc1cc2c(cc1OC)-c1cc(=O)c(C(=O)O)cn1[C@H](C(C)C)C2", "system": "CD-1 mice, spinal cord", "setting": "oral, 10 mg/kg", "quantity": "tissue concentration", "result": "> 500 ng/g and < 1000 ng/g"}
{"SMILES": "N=C(N)NCCC[C@H](NCC(=O)[C@@H](O)[C@H](O)[C@H](O)CO)C(=O)O", "test": "UPLC-MS/MS", "system": "C57BL/6J mice, cerebellum", "setting": "intraperitoneal, dose not given, 15 min", "quantity": "tissue concentration", "result": "6 ± 2 pmol/mg tissue"}
{"note": "Excerpt of the above:"}
{"SMILES": "O=C[C@H]([18F])[C@@H](O)[C@H](O)[C@H](O)CO", "system": "Kunming mice, turpentine inflammation, normal muscle", "setting": "intravenous, 0.74 MBq, 60 min", "quantity": "tissue uptake", "result": "0.95 ± 0.07 %ID/g"}
